# Measurements pooled from the literature.
# Numbered parts are unrelated; each lists some results of a single study.

# Sample 1
# Target: RING finger protein unkempt homolog, zinc fingers 1-6, SBP tag (UNK, Homo sapiens, UniProt Q9C0B0, residues 30-357)
# Chain of UniProt Q9C0B0 (30-357, looked up): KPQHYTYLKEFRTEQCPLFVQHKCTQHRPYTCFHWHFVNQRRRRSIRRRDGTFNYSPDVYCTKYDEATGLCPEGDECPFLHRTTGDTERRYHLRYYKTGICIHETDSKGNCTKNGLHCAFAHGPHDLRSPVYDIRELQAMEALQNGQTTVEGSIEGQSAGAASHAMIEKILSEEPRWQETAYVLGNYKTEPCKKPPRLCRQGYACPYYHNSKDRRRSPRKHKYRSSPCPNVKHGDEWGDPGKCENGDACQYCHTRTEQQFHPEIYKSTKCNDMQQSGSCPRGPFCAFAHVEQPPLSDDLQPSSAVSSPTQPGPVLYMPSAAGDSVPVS
# Method: RNA Bind-n-Seq
# Form: RNA
# Medium: in vitro
# Concentration: 100 nM
# Setting: RNA with constant flanks, vertebrate orthologous sites, ends assumed
# Baseline: input RNA pool
# Direction: higher = stronger binding
# All sequences stand within: GGGAGUUCUACAGUCCGACGAUC … CAACAGAGGAUUGAGCAUCA
Oligonucleotide,bound/input enrichment
CCCCGUACCCCCUAAGGUAGAACUUUUUAAAAUUUUGUCUCCCCACCACUUCUGAAAACUUAGCAAUAUUAGAAGAAAACACUAACGAAGAAAUUGUGCUCGUUGUUUUGCAAAUGAAAU,1.86 ratio
CCGAAAGGCCAAAUUCCCUCCUCCCUUCUACUGCUUCUACCAACUGGAAGCACAGAAAACUAGAAUUUCAUUUAUUUUGUUUUUGAAAUAUAUAUGUUGAUUUCUUGUAACAUCCAAUAG,0.43 ratio
AUUUAAAAUGUGUUUAGUUAUAUUUAAUGAUCUCAUUCCUGAGUUCCUGUUUCACUGAAGUAGCUUCCAUUUCUAUUAUCGUAGUCAUGAGUAAAUAGAAGGUUUGUGCCAGUAGAGACU,0.373 ratio
CAGUCAUGGAGAAAAACAUAUUAAAAUAAUUUCAUGGCACUGAUGUUAAUUCUAGUCUAUUAGUUUUAUAAAAGUUAGGAUUCUUAUUUAGGAACAACAGGAAAUGACUGUUAAGGAGAA,1.41 ratio
CGGAACAAAUGCCCAGCUCAGAGCACUCCCUACAGGGGUUCUUCGGCACCGGCGGUGAAGUGGAUGUAUCCUAUCAGCAGGACCCCAGUAGUCAAAACGCGGUGUCCUGCAGUCCCUCCA,0.16 ratio

# Sample 2
# Target: RNA binding protein fox-1 homolog 2, RRM domain, GST-SBP tag (RBFOX2, Homo sapiens, UniProt O43251-10, residues 100-194)
# Method: RNA Bind-n-Seq
# Form: RNA
# Medium: in vitro
# Concentration: 365 nM
# Setting: natural RNA segment, single round, ends assumed
# Baseline: no-protein control
# Direction: higher = stronger binding
# All sequences stand within: GGGAGUUCUACAGUCCGACGAUC … UGGAAUUCUCGGGUGCCAA
# Residues (chain): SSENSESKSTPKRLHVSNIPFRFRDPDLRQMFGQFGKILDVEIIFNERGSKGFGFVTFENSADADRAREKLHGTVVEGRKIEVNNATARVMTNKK
Oligonucleotide,RBNS enrichment (R)
GGAGCUGGAGCAGCAGCAGUUGAUGAGUUCUGUAAGCAGAUGCAGCCGCCUGGGGAGUGAGCCAGCCUGCAUCCCCGGCAGAGGAACUGGUGCCUGCCUUUGUCUGUGAG,3.61
CUGAGCACCAAUCCCAGGUUUGUACCCUUUCCCCUAAUCUGUUUUUAGAUUUGAUCUAGGUUGCCUCAAUAGCCUUGGGUGUUUUAUUUAAAUGAAGAGGGGAAUAAACA,0.226
UGUCCUUCCCUCUCCCAGUUAAAACGGAUGACCAAAGACCUUUCUUAUGCCGGAAGCAAAAACCAAACUUUUUGUUGGCUUUUUCUUUUGCCGCCUCCCGAGCACCCUGC,0.587
UCUGUCAUGGAAAUAUUCACAAGAAAGCUGGCAUCUGUCCCAAUUCUCUCUCCUGUAAAUCCACGAGCACGGUCUGGAUCUGGAUGAAUAAAUAUAUUUCCUUAGGUGAU,1.86
CCCUGUUUCCCCUUCUGCCUCCGUUUCCCCAGCAGGACCACACUGCCUGUGGGACAAAGGACAGGAUGUAUGAAUUUAGGCCAAAGGUCCUAUGGUCCAUUUGCAGGGUU,0.478
UGGUGAAUCUAUCUCUCCGGAGAUAAUUUCAUACAGAGAUUUUAAGAAAACAUCUUUAUAUUAAAAAAGAUCUCAUUUGAUCCUUAAGCCAGUCUCAUGAAUGAAAAGGA,0.841

# Sample 3
# Target: Sal-like protein 4, full length isoform A (SALL4, Homo sapiens, UniProt Q9UJQ4, residues 1-1053)
# Chain of UniProt Q9UJQ4 (whole entry, looked up): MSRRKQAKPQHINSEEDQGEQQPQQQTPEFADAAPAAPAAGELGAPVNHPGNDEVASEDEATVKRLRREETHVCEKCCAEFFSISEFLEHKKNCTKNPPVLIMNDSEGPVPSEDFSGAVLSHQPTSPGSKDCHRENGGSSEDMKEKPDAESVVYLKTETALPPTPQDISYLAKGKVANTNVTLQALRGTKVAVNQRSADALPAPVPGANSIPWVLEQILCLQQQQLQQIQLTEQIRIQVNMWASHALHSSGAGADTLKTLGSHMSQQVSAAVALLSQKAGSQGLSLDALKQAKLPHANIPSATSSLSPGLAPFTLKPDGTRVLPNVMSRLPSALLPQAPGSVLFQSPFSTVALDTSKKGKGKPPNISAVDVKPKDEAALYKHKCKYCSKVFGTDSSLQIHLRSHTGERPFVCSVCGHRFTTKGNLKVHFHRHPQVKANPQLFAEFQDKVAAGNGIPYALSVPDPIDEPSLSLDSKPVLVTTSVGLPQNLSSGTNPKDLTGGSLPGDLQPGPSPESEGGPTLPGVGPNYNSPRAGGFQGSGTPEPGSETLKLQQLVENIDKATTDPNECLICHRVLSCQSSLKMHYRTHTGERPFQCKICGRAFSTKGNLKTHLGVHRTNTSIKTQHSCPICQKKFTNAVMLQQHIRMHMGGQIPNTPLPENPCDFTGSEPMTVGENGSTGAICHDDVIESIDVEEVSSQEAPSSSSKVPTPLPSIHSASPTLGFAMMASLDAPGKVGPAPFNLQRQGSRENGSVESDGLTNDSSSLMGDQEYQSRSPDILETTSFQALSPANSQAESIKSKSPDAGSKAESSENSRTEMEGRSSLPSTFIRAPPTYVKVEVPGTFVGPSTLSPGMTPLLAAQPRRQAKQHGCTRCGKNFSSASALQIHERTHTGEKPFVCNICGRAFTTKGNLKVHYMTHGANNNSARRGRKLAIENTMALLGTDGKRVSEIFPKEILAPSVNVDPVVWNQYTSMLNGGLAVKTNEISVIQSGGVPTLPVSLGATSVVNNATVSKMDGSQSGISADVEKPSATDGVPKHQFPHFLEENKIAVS
# Method: universal PBM
# Form: double-stranded DNA, one strand shown
# Medium: in vitro
# Concentration: 600 nM
# Setting: 8-mer, flanks averaged, mean of replicates
# Direction: higher = stronger binding
Oligonucleotide,E-score
CATGGGCC,-0.256
AACCATAT,0.303
TCTAAGAA,0.232
GAGGAATC,-0.14
ACGCGAAC,-0.127
CTTGATTC,0.0903
AGTTAAGC,0.0683

# Other studies, line by line
Molecule,target,test,test system,conditions,scale,measurement,value
"PhoQ, residues 284 288 289 292 302 303 NLGVHL","PhoP, residues 12 14 15 18 19 TQAML (Escherichia coli, UniProt P23836)","Sort-seq, item: YFP reporter",E. coli,"PhoQ-PhoP variant library, together with: 10 µM Mg2+","baseline: high Mg2+ state, higher = stronger signaling",fold induction,0.606

# Some of these lines once more (sample 2):
Oligonucleotide,RBNS enrichment (R)
CCCUGUUUCCCCUUCUGCCUCCGUUUCCCCAGCAGGACCACACUGCCUGUGGGACAAAGGACAGGAUGUAUGAAUUUAGGCCAAAGGUCCUAUGGUCCAUUUGCAGGGUU,0.478
UGGUGAAUCUAUCUCUCCGGAGAUAAUUUCAUACAGAGAUUUUAAGAAAACAUCUUUAUAUUAAAAAAGAUCUCAUUUGAUCCUUAAGCCAGUCUCAUGAAUGAAAAGGA,0.841
